Results collected from several papers.
Numbered parts are unrelated; each lists some results of a single study. Changes are numbered by the printed parent chain.

Set 1
Target: Sal-like protein 4, full length isoform A (SALL4, Homo sapiens, UniProt Q9UJQ4, residues 1-1053)
Sequence of UniProt Q9UJQ4 (whole entry, looked up): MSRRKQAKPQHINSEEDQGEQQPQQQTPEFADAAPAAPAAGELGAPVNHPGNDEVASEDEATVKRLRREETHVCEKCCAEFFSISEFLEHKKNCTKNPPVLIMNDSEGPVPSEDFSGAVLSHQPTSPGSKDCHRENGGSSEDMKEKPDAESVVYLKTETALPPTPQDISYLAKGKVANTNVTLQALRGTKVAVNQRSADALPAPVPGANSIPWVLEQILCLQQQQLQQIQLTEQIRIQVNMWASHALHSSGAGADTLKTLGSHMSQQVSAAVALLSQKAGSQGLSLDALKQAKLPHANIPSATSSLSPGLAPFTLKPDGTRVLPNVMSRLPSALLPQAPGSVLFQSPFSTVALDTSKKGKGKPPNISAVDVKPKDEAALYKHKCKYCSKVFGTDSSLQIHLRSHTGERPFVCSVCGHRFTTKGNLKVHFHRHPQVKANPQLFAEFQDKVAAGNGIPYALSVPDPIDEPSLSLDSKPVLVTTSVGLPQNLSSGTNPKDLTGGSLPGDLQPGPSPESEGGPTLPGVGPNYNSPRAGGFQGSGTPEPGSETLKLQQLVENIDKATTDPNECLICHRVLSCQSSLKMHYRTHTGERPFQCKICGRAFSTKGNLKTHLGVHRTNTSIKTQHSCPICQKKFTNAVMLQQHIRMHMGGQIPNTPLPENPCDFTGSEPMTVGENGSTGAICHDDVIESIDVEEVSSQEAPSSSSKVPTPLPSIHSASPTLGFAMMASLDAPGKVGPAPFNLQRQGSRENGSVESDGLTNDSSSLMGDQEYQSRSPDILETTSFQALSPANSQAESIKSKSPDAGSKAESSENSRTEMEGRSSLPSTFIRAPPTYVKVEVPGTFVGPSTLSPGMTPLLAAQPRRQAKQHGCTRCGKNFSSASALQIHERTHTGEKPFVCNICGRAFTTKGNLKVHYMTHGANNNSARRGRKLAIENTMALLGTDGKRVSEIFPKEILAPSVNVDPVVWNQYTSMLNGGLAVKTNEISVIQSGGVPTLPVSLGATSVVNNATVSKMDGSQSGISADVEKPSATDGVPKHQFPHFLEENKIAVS
Technique: universal PBM
Molecule type: double-stranded DNA, one strand shown
Sample: in vitro
Concentration: 600 nM
Notes: 8-mer, flanks averaged, mean of replicates
Reading: higher = stronger binding
Strand | E-score
AACGGACA | -0.0623
TCACCGGA | -0.174
CCCTGATC | -0.226
CCTGATCC | -0.148
GGACTGTA | 0.0144
ACGCCGCG | -0.258
CATTATCC | 0.161
ATCATTTA | 0.336
CCTTGGAC | -0.123
AAACTGAA | 0.182
AACTATAC | 0.245
CGACCTAA | -0.0244
CGTCCCTC | -0.244
CGGAGTAA | -0.0864
ATCATTAC | 0.3
TGGAATAA | 0.213
AGAGGTGC | -0.245
AGGAATAA | 0.236
CTCGGACC | -0.212
ACCCGGCA | -0.336
AGATGTGA | 0.103
AACCCGAC | -0.0951
AACGACTG | -0.113
TCATCACA | 0.0856

Set 2
Target: RNA binding protein fox-1 homolog 2, RRM domain, GST-SBP tag (RBFOX2, Homo sapiens, UniProt O43251-10, residues 100-194)
Technique: RNA Bind-n-Seq
Molecule type: RNA
Sample: in vitro
Concentration: 365 nM
Notes: natural RNA segment, single round, ends assumed
Relative to: no-protein control
Reading: higher = stronger binding
Residues (chain): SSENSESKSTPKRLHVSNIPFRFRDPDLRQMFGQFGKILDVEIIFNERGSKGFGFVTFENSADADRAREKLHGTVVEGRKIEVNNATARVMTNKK
Strand | RBNS enrichment (R)
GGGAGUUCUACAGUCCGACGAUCUCCUCUGCUGAGUUGUGGGAGGCAGACCUCAGUUUGCUUGUUUUUUGUGAAAGCUAACUUUAUGAUUUCAAGCACACUUUCUACAUGAGAAACCCCUAAUGUGUGUCCAUUGGAAUUCUCGGGUGCCAA | 0.525
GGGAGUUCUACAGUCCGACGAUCCUGUUCUGACCUCAUGAGUGUCAAACGUGCCCCCCAGUUCCUUAGGAGAUGUCAUGACAACACUACACGCACCCAAUAAAGCGAAUGGACCAUCCAUGUGUGUCCCUGUGUGGAAUUCUCGGGUGCCAA | 0.274
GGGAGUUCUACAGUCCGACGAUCUUCUAUUGGACCCAGAUACCCUUUACCUCUACAGCAUAGACACCAAAUGUCCCAUAGUCCUCUCACACCCUGUGUUCCAGCCUUCAGUGUUUGGACAGAGCACCACUGUCUGGAAUUCUCGGGUGCCAA | 0.573
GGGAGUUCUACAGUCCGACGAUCCCAGAUGCCCUGGUGGAAUGACCUGCCUCUCUGCCGUUUCUGCCAACGUGUUGGUGCUAUAAGCUGCUUCAAAUACCAGUUUGUCUGUAGUGUGUACUCACCUAAUCACUUGGAAUUCUCGGGUGCCAA | 0.272
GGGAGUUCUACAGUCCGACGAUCUUCCCCAAAGCCCUGGGCCACUGCCAUUGGGUUAGUCAAGAUGAAGGAGGAGGACUGGCUGCCUCCAUUUUGCCUUGUUUGUUAGUUUGCCUGGGUCUGUCUGAGGAAGGUGGAAUUCUCGGGUGCCAA | 4.17
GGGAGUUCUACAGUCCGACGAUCGAGCCAUCCUUGUUUCCAAAUAUGACCCUUCGCUUGAGGGCAACUGCAUAGGUACAUCUAACUCUGGACUGGCAUGCACAUUGUCAUGUGCAGCUUUGCAUAUACACACAUGGAAUUCUCGGGUGCCAA | 1.28
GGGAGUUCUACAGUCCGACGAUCGAGGCUGUGGAACAAAACACGCUGCAGGAGUUCCUGAAGCUGGCUUGAGUCAAGCCUGUCCAGAGUUCCCCUGCUGGACUCCAUCACCACACUCCCCCCAGCCUUCACCUUGGAAUUCUCGGGUGCCAA | 0.464
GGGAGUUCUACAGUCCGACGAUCAAUGCAUGUUUUGAGAUGUUUGACCACUUCAGCAACUACGUCAGUGGCUUCAGGAUCGGGUGUACUGUUCUCAUAACCUUGGGAGGAGAAAGAGAAAGAGAGCGGCUGCUUGGAAUUCUCGGGUGCCAA | 22.7
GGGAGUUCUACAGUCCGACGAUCUGCUAGUGUCGGAGUGUUCUCUGUAACGCGACAGUUCCUUCUGUUGCAAUAGCCCCCCUGCAACACUGCAAUAAUCCUUCAGUGUCUCCCCUGGGCUCAAUUCACUUCCUUGGAAUUCUCGGGUGCCAA | 1.13
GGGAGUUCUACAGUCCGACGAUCAUAGAAGAUGCUGAGUGUGUUUGAGAGACUGACAUACAUAAUAGAUGACUUCCUAGGGUUCUGAAAUUCAUAGACUAAGAGAAAACUGUGUAUAGCUUGCCCGAACAGGAUGGAAUUCUCGGGUGCCAA | 1.82
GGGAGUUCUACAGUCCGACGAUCAUCAAAGAGUGCUAAGAAAAUUGCGAAGAAGCCUUACUGCUUACACCAGAGAGCUCAGGGCAGCUUUAUCUUCCAGGUUUAUCUAAAACUAUCUGUGUUGGGCUUCCCUGUGGAAUUCUCGGGUGCCAA | 0.368
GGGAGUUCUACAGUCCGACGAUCCCACCCCCACCACUCUACUGAAAGAAGAGAGCAACAGAGGUGAGGACCUGCUCUUCUCUAGUUCCAGAUCCUGAUGCUAAUUAAUCUCCUCCAGGACACCACAGUCCUUGUGGAAUUCUCGGGUGCCAA | 0.508

Set 3
Target: CCNA1, cyclin fold, Cln2 fusion (human)
Technique: yeast growth competition, sequencing
Sample: yeast
Notes: weak parent motif
Relative to: not given
Reading: higher = stronger binding
Starting sequence: PKN2 docking peptide (human); VSAVQKLDFSDTM; partner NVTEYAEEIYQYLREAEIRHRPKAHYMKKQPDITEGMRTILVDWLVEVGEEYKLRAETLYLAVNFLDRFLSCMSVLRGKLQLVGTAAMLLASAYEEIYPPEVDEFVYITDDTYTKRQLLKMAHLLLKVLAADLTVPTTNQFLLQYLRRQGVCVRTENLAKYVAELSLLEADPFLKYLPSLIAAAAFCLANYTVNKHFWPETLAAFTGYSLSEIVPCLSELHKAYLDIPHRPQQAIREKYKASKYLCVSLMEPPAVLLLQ
Substitution | normalised enrichment score
T12A | 0.0431
F9L | 0.195
D11P | 0.19
F9P | 0.127
D8R | 0.308
V4K | -0.0317
S10K | 0.186
V1Q | 0.189
T12Q | 0.143
M13I | 0.407
T12I | 0.0545
M13T | 0.165
T12W | 0.417
D8G | 0.173
L7S | -0.0231
D8H | 0.0604
L7R | 0.105
D8E | 0.176
S2M | 0.214

Set 4
Target: Centromere-binding protein 1, full length, His-tagged (CBF1, Saccharomyces cerevisiae, UniProt P17106, residues 1-351)
Sequence of UniProt P17106 (whole entry, looked up): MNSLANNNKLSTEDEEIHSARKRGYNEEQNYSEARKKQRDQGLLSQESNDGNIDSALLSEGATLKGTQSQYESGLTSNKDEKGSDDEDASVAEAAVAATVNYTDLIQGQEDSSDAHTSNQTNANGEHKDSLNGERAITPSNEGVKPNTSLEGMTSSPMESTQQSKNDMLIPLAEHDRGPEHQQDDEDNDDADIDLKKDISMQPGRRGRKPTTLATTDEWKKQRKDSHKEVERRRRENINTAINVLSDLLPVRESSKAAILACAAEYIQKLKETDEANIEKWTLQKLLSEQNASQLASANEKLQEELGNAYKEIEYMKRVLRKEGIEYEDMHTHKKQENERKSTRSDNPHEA
Technique: competition protein-binding microarray
Molecule type: double-stranded DNA, one strand shown
Sample: in vitro
Concentration: 2 µM
Notes: whole 60-bp probe, lowest competitor level
Added: Pho4 competitor, 0.05 µM
Reading: higher = stronger binding
Strand | fluorescence intensity [a.u.]
AAATTACTAAGTTGGGTGGTGGGTGACGCCGTATGAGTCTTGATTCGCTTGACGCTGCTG | 67.5
GGAAAAGGAAAGCCAAATGTGACGGACTCAGACTACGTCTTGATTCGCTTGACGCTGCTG | 67.5
TCCAACTGAGTCCATCACGCAGGCACCAGAAGCTGCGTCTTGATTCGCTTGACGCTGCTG | 82.1
CGTCCTAGTGATTGCCACGTGTTTTCCATGAGGAAGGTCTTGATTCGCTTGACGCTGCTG | 1100
GTCTTGTCTCATTGTCACGTGGGTGTCCCCACTTCAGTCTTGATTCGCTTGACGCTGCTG | 3260
AGAAAGACCCAGAGGCACATGCAAGATAGTTGTGCCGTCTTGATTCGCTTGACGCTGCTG | 108
AGGTAGATCTCTACACGTGTGCAAGCGCATAACAATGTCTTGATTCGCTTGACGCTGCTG | 759
GGGAAACGCCCAGAGCACGTGCTCCTGCCCGACACCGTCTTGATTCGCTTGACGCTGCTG | 2160
TTGGACTTTAATGGGGGCGTGGGTATGTTTGGAGACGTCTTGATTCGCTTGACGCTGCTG | 89.5
CATACCCAACCTTGTCACGGGACTTAAGATATTTGTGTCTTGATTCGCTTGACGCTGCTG | 1110
AGATACAAAGTGTCCCACGGGCCAGTTTTGGCTTTAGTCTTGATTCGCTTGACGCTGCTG | 56.3
CTAACGAAGGTTTGGCCAGTGGGTGACAAGCCAAGTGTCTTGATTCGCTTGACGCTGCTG | 64.7
ACAACAAAGTCGAGTCACGTTTCTCGCAATTATTACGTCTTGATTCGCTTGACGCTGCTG | 1340
TTGAGAGTTTCCCATCACGTGGTCGCCTTGCATCGCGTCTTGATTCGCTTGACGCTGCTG | 5270
CTTTCCCGATCTTGTCACGAGACTTTAGCACATTTGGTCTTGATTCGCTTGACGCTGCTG | 1090
AAAGCGGTAATTTGGTCCGTGGGTGCAGATATCTATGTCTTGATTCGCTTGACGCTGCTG | 82.9
GGGTCCACTCTTATACGCGTGGGTATTTTTTCCTTTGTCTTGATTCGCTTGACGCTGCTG | 85.8
GCGGAAGACGCGCGAAACGTGAAACATTTTGCATGGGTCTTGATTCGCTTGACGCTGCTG | 112
AAATTACTAAGTTGGACGGTGGGTGACGCCGTATGAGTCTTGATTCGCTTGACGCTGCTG | 64
CCAAGTGGATATTTTCACGTTTGCGCGCTGCGTCTTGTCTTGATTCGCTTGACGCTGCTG | 85.8
AAATTACTAAGTTGCATAGTGGGTGACGCCGTATGAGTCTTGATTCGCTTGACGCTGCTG | 69.7
TGCATTCTTCAATATCAGGTGAAATGTGTCTTGCCTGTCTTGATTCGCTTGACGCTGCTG | 133
CTAACGAAGGTTTGTCACTTAACTTACAAGCCAAGTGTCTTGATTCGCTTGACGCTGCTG | 76
AGGCTCTTTCACTTCAGCATGACAGTAGTCCACTCTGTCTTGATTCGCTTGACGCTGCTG | 71.7

Set 5
Target: ABI1, truncated, D143A, DHFR fusion (Arabidopsis thaliana)
Technique: DHFR PCA, deep sequencing
Sample: yeast
Notes: methotrexate growth selection, single substitutions
Added: (+)-ABA 710 µM
Relative to: wild-type fitted maximum
Reading: higher = stronger binding
Starting sequence: PYL1, truncated, DHFR fusion (Arabidopsis thaliana); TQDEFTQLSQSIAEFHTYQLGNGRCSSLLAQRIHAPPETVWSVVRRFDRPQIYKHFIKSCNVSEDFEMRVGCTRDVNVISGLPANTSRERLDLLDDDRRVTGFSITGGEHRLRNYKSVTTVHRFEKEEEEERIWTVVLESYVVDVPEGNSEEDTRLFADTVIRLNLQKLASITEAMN
Substitution | relative binding score [%]
R24H | 93.7
S171V | 97.8
T39P | 78.2
F47L | 1.67
R163I | 60.6
C60E | 11
D96M | 78.6
A170M | 94.9
N149D | 69.2
F56I | 3
R123E | 111
H110P | 9.66
E128F | 105
V76S | 68.1
M68A | 103
T173D | 15.1
